Experimental data of several laboratories.
A part holds a random share of what one study measured. Positions count from the first letter of the parent shown.

Series 1
Target: Sal-like protein 4, full length isoform B (SALL4, Homo sapiens, UniProt Q9UJQ4-2, residues 1-616)
Method: universal PBM
Molecule type: double-stranded DNA, one strand shown
Medium: in vitro
Tested at: not given
Notes: 8-mer, flanks averaged, mean of replicates
Direction: higher = stronger binding
Construct (chain): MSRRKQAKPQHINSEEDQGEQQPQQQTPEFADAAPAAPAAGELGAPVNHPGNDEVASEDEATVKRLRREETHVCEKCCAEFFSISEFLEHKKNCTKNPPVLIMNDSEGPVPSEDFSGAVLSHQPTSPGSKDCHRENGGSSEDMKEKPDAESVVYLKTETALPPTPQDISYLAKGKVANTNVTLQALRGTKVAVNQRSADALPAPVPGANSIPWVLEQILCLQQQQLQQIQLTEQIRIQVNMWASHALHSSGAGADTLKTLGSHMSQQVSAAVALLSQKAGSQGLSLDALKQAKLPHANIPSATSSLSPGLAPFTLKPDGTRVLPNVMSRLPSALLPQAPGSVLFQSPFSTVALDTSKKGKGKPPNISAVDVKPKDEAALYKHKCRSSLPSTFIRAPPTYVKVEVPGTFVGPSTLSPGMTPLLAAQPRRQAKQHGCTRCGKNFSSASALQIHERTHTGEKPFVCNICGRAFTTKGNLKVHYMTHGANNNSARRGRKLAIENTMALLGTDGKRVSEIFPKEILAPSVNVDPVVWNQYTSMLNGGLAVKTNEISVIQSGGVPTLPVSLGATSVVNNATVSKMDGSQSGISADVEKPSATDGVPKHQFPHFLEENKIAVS
| Oligonucleotide | E-score |
| --- | --- |
| AATTAGAA | 0.206 |
| GCTATGTA | 0.151 |
| CCATACGC | 0.0428 |
| TAGGGTCA | -0.119 |
| ATTACTGG | 0.114 |
| CTGCTAGC | -0.23 |
| GCGTCCGA | -0.369 |
| CACTCCAG | -0.052 |
| GCTAGTCA | -0.0854 |
| GTGGATCA | -0.0859 |
| GGAGTCCA | -0.159 |
| AACGAAAG | -0.0044 |
| AGCCTCTG | -0.158 |
| CAATTAAC | 0.178 |
| ACTCCTCT | -0.0654 |
| GGCTGATA | -0.00583 |
| GCGATCCC | -0.281 |
| AGGATGCG | -0.0765 |
| GCGATGCC | -0.358 |

Series 2
Target: CCNE1, cyclin fold, Cln2 fusion (human)
Method: yeast growth competition, sequencing
Medium: yeast
Notes: strong parent motif
Relative to: not given
Direction: higher = stronger binding
Parent: SCAPER docking peptide (human); SNARRSLNFGGST
| Variant | normalised enrichment score |
| --- | --- |
| G11N | 0.689 |
| F9G | -0.591 |
| A3W | 0.417 |
| G11C | 0.916 |
| F9Q | 0.133 |
| G11L | 0.583 |
| G11K | 0.671 |
| S12D | 1.81 |
| G10F | 0.561 |
| F9I | 0.374 |
| G11I | 0.733 |
| S6G | 1.26 |
| G10L | 1.12 |
| R4N | 0.689 |
| A3K | 0.106 |
| R5C | -0.108 |
| S6D | 0.211 |
| L7H | 0.309 |
| G10S | 0.347 |
| L7Y | 0.387 |
| G10Y | 1.04 |
| S12W | 1.09 |
| S6A | 2.76 |
| N8I | 1.51 |

Series 3
Target: Interferon regulatory factor 5, full length, phosphomimetic (IRF5, Homo sapiens, UniProt Q13568-2, residues 1-514, K96S/S451D/S453D/S456D/S462D)
Method: protein-binding microarray
Molecule type: double-stranded DNA, one strand shown
Medium: in vitro
Tested at: 250 nM
Notes: 60-bp whole probe
With: salmon DNA 0.4 mg/ml
Relative to: random background probes
Direction: higher = stronger binding
Constant ends, left off below: GCCTAGCAC … GTCTTGATTCGCTTGACGCTGCTG
| Oligonucleotide | log fluorescence [z-score] |
| --- | --- |
| GACGAACTGGGGTATCGAGACGTGCTA | 0.197 |
| TCACTCTTCTGGATCTCACTGTGCTAG | 0.269 |
| TTAGATATCGGGACTGAATTAGTGCTA | 1.23 |
| TTAGGACTGGACTATCGGATAGTGCTA | 1.34 |
| TCAAATTGTCTTTTCACACTGTGCTAG | 0.836 |
| GACGCTTTCGGGTATCGGGACGTGCTA | 8.88 |
| GACGAACTGACACTGGAGACGTGCTAG | -0.227 |
| TTAGGTATCGGGACTGGGATAGTGCTA | 1.96 |
| GACGATTTCGGGTTTCGTGACGTGCTA | 3.88 |
| GTGTTTCTCAACCATTTTGTTGTGCTA | 1.09 |
| TCACCTCTGTAAGTCAGACTGTGCTAG | -0.0166 |
| TTTGGTTTCTGGTTTATTGAGTGCTAG | 3.97 |
| TTATATTTCAGTATCGATTAGTGCTAG | 8.57 |
| TCAGGTCTCCCTTGAGGACTGTGCTAG | -0.363 |
| TCATACCTCATCTTTCCCACTGTGCTA | 0.516 |
| GACGATATCAGAGTGGAGACGTGCTAG | 0.232 |

Series 4
Target: RNA binding protein fox-1 homolog 2, RRM domain, GST-SBP tag (RBFOX2, Homo sapiens, UniProt O43251-10, residues 100-194)
Method: RNA Bind-n-Seq
Molecule type: RNA
Medium: in vitro
Tested at: 365 nM
Notes: natural RNA segment, single round, ends assumed
Relative to: no-protein control
Direction: higher = stronger binding
Residues (chain): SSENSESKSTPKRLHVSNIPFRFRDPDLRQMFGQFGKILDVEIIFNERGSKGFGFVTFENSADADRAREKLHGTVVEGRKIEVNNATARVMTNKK
| Oligonucleotide | RBNS enrichment (R) |
| --- | --- |
| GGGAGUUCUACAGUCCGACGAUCUUAUUUAUAAGGGAAUGCCUUUAAAAGCACCCAAGUCACCUGUUGAACACUUUGCUGCUUAGAAAUUUCUUCCGCUAGUUAACCUAAAUCAUCUCUCUCAAGUUCAAAGUUGGAAUUCUCGGGUGCCAA | 0.6 |
| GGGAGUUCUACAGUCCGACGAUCCCCCGGCCCAGAUCCUGGCCGUCUCAUCCCAUACUUCUGUGGGGAAUCAGCCUCCUGCCACCCCCCCGGAAGGACCUCACUGUCUCCAGCUAUGCCCAGUGCUGCAUGGGUGGAAUUCUCGGGUGCCAA | 0.524 |
| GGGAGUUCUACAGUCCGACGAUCCUUCAGGAGAUUAACAACUGGGUGCAGGCCCAGAUGAAAGGGAAGAUUGCCCGGUCCACGAGGGAAAUGCCCAGUGCCCUCAGCAUCCUUCUCCUUGGCGUGGCUUACUUUGGAAUUCUCGGGUGCCAA | 0.528 |
| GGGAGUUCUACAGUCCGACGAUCAUGAGAACCUUGGCCUUUAUCACCCAAACAAGAACUCUCUAUGAGAUUGGUUGACGUGAGUUGGUUGAGUCUCUGGAGCAUCAGUUUUCAACUUCUGGAUCGCAACCCCUUGGAAUUCUCGGGUGCCAA | 0.161 |
| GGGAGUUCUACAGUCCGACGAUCUAGGAUUCUCACCGUGGGGCUGGAAGAAAAGAGCAUCGACUUGAUUUCUCCAACCACUCAUCCCUCUUUUUCUUUCUUCCACCACUCCCCACCCCAGCUGUAGUUAAUUUUGGAAUUCUCGGGUGCCAA | 1.07 |
| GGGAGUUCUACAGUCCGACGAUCAAAGUAAAAGUUCUAAAAUGAAGUCACACAGGACAAUUAUUCUUAUGCCUAAGUUAACAGUGGAUAAAAGACUUUUCUGUAAACAACUCCAGUAAUAAAUAUCAUGAACUUGGAAUUCUCGGGUGCCAA | 0.411 |
| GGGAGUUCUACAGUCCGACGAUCAUGUGAUGGGGCUUCAAGACGUGAACUGAGACAAUUCACUCUGGCUGUUUGAACAGCAGCGUUUCAUAGGAAGAGAAAAAGAUCAAUCUUGUAUUUUCUGACCACAUAAAUGGAAUUCUCGGGUGCCAA | 0.289 |
| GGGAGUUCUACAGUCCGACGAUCUCUAGCAAGCCAUGGAGACAGGUAGCAUUUGUAAGAUGCUGCACAGGAGCAGCAUUAUCCCCAAAGAUAUUACAGGGUAGACACGUUUUAACUGAAAUCAAUCAAGAUAAUGGAAUUCUCGGGUGCCAA | 0.668 |

Series 5
Target: ABI1, truncated, D143A, DHFR fusion (Arabidopsis thaliana)
Method: DHFR PCA, deep sequencing
Medium: yeast
Notes: methotrexate growth selection, single substitutions
With: (+)-ABA 0.032 µM
Relative to: wild-type fitted maximum
Direction: higher = stronger binding
Parent: PYL1, truncated, DHFR fusion (Arabidopsis thaliana); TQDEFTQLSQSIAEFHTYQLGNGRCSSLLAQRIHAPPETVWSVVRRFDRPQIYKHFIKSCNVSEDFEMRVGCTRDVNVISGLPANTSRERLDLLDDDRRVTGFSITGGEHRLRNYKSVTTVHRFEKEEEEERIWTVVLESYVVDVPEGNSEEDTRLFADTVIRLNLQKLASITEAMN; partner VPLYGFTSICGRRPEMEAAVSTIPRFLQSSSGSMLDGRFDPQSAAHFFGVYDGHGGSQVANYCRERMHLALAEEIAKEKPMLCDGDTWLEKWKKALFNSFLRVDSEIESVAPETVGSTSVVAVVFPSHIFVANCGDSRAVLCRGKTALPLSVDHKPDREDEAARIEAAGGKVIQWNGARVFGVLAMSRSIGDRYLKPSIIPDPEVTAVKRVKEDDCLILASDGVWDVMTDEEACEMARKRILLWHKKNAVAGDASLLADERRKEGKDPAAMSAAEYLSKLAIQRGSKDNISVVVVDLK
| Variant | relative binding score [%] |
| --- | --- |
| Q7W | 20.8 |
| K54H | 3.88 |
| M176P | 1.55 |
| D48S | -5.06 |
| D95L | -3.07 |
| V44Y | -5.84 |
| K58F | -1.15 |
| T119L | 8.95 |
| Q167K | 30.2 |
| H16S | 0.618 |
| P146M | 15.7 |
| E125L | 17.3 |
| Y115H | 8.13 |
| R74Q | -2.49 |
| R155A | -2.13 |
| I33Y | -1.74 |
| V118T | 24.9 |
| Q7T | 21.4 |
| N149W | 7.55 |
| S140N | -4.02 |
